Assay results pooled from the literature.
Lines come from different studies, so protocols differ. “And” joins repeats or separate records; there may be more than shown. ± marks the error that the study gave.
Nuclear receptor subfamily 2 group C member 2 ligand-binding domain: Nuclear receptor subfamily 2 group C member 2, ligand-binding domain (Homo sapiens, UniProt P49116)
Chain of UniProt O14980 (whole entry, looked up): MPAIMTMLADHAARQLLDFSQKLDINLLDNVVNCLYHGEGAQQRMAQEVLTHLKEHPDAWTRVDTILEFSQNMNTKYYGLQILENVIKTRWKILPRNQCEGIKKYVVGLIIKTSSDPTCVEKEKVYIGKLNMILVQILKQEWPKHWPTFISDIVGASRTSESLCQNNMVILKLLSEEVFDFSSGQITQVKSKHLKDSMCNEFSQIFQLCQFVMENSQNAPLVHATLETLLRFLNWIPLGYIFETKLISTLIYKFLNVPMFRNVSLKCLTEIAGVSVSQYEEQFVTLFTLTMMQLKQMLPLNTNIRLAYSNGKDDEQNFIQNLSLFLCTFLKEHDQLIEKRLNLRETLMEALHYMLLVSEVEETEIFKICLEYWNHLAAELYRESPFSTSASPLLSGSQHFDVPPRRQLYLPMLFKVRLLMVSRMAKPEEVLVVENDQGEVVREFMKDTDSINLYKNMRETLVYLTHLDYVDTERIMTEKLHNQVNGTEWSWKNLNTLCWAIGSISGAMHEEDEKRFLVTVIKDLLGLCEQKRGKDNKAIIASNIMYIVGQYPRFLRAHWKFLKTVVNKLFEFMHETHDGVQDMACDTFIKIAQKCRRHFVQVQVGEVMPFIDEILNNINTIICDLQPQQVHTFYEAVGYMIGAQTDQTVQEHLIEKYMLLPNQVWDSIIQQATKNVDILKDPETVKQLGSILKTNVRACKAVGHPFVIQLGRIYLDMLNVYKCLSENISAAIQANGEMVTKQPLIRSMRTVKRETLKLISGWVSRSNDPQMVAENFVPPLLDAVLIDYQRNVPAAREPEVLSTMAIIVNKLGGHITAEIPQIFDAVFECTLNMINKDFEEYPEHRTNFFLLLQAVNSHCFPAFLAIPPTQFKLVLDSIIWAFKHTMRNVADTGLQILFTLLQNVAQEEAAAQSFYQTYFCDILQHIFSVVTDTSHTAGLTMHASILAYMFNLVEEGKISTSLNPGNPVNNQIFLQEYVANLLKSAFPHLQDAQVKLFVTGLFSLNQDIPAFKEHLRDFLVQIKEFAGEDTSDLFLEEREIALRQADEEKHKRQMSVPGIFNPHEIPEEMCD
Chain of UniProt P51575 (whole entry, unmodified, looked up): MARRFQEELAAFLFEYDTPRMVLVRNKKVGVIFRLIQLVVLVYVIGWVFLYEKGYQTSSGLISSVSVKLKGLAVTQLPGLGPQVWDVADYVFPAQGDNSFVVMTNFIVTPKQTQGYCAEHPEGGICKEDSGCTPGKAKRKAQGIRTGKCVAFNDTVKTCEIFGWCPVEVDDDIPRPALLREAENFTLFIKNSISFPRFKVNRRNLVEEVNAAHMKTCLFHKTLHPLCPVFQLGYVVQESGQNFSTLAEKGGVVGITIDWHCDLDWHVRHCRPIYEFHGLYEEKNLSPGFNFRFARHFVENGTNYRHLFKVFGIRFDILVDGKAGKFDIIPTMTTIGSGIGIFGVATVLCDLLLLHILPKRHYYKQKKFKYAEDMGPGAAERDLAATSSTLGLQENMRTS
Chain of UniProt Q64663 (whole entry, unmodified, looked up): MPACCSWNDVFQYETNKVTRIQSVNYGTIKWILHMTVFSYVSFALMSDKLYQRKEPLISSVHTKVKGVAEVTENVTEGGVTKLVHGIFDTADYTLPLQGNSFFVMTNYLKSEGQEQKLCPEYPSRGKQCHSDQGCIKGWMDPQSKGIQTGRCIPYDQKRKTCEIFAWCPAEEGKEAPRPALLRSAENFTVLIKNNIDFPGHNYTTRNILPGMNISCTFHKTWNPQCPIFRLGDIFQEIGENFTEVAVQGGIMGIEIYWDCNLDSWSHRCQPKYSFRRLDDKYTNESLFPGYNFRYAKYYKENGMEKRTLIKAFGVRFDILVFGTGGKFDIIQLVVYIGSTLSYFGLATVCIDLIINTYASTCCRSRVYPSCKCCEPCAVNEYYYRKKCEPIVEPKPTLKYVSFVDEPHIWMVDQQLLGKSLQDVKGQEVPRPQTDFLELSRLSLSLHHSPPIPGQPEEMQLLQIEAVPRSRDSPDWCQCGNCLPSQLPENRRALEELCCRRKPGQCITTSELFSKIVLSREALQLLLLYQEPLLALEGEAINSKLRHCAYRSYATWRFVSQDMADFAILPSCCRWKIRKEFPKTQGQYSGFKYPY
Chain of UniProt Q16774 (whole entry, looked up): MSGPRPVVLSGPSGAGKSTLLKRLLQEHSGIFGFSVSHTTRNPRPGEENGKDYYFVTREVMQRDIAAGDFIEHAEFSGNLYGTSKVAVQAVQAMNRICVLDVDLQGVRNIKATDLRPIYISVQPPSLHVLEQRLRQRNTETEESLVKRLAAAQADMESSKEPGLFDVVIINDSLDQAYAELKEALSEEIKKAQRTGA
Chain of UniProt P49116 (whole entry, looked up): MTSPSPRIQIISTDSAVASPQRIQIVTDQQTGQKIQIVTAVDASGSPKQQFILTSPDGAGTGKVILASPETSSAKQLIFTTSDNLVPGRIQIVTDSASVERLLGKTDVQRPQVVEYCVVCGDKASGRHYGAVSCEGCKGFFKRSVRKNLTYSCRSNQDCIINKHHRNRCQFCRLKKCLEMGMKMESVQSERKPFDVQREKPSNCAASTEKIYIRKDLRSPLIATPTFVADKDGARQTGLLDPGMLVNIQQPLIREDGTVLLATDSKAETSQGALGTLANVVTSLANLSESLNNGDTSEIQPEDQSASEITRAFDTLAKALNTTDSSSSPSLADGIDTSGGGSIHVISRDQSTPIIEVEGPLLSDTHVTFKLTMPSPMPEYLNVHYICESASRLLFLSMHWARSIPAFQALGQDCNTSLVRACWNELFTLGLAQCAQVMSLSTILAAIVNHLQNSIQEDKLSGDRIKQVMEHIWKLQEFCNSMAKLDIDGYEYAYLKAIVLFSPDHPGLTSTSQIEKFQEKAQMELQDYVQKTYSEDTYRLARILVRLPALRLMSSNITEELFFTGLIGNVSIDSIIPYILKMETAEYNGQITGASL
Chain of UniProt P35606 (whole entry, looked up): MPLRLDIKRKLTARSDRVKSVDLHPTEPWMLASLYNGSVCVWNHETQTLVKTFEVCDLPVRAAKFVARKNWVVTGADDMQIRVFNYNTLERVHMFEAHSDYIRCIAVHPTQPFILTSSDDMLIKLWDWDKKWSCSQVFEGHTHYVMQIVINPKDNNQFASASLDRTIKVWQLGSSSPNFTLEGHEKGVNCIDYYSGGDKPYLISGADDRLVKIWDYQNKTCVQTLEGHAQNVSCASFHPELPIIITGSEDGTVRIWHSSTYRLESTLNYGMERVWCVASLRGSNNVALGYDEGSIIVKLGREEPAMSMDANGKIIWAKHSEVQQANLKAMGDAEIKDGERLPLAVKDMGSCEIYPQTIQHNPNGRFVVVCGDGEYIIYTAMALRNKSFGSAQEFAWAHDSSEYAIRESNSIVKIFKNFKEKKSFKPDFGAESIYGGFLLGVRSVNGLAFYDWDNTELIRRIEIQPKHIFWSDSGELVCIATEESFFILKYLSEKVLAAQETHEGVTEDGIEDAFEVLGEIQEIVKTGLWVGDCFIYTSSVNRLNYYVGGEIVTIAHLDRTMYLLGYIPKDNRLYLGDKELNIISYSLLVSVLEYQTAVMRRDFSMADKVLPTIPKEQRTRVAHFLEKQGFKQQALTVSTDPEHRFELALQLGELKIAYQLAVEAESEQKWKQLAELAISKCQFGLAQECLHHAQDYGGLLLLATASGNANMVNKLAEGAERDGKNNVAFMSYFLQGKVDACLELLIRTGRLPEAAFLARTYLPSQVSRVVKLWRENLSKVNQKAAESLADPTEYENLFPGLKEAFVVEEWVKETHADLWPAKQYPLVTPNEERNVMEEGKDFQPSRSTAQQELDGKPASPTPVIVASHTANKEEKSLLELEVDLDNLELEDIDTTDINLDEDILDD
Chain of UniProt Q7KZI7 (whole entry, looked up): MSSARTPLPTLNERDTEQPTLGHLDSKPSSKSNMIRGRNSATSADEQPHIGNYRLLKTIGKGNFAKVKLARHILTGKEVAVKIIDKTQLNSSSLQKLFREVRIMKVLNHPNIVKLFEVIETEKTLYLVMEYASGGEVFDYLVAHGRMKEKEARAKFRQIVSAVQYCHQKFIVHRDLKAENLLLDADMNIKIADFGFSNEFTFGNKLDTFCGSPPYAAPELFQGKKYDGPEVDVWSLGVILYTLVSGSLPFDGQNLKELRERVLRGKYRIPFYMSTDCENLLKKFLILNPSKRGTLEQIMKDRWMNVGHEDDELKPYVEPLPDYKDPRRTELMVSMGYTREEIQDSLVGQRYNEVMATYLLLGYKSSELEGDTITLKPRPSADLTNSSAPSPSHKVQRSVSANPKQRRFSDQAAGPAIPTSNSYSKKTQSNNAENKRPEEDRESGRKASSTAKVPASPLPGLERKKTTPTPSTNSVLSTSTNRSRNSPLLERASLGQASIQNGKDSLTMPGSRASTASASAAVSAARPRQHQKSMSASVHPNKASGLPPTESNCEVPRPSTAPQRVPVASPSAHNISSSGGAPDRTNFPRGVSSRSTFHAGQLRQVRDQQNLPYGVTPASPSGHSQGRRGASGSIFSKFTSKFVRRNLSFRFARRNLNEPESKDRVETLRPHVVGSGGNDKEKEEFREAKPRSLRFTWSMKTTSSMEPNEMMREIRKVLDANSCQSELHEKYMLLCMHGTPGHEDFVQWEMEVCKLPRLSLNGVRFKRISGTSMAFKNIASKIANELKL
Chain of UniProt P63208 (whole entry, looked up): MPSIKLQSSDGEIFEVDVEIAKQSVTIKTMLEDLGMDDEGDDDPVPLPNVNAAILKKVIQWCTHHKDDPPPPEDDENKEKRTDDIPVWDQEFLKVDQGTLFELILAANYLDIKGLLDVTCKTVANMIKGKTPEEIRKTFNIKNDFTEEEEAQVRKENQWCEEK

| SMILES | tested on | assay | test system | conditions | how to read | measurement | value |
| --- | --- | --- | --- | --- | --- | --- | --- |
| Nc1ncnc2c1ncn2[C@@H]1O[C@H](COP(=O)(O)OP(=O)(O)OP(=O)(O)O)[C@@H](O)[C@H]1O | ATP-sensitive inward rectifier potassium channel 1 (Rattus norvegicus, UniProt P35560) | inside-out patch clamp | renal principal cells, rat | together with: PKA |  | concentration restoring channel activity | 0.05 to 0.1 mM |
| CC1(C)CC2(C)OC(=O)NC2(C)c2ccccc21 (stereo not shown) | S-phase kinase-associated protein 1 (SKP1, Homo sapiens, UniProt P63208) | binding, affinity selection mass spectrometry |  |  | reference: other proteins in batch | log fold enrichment | -0.023 |
| CC(Nc1nc(N2CCCC2)nc2ccccc12)c1ccccc1 (stereo not shown) | Exportin-1 (XPO1, Homo sapiens, UniProt O14980) | nuclear export, high content imaging | HeLa Kyoto reporter | 10.01 µM, 2 h |  | cells with nuclear reporter | 3.99% and 1.73% and 8.42% |
| CC(C)C[C@@H]1NC(=O)[C@H](C)NC(=O)CNC(=O)[C@H](CC(N)=O)NC(=O)[C@@H]2CCCN2C(=O)[C@H](Cc2ccc(O)cc2)NC(=O)[C@H](CCCNC(=N)N)NC(=O)[C@H](Cc2ccccc2)NC(=O)[C@@H](NC(=O)[C@H](CCCCN)NC(=O)[C@@H]2CCCN2C(=O)[C@H](CO)NC(=O)[C@H](C)NC(=O)[C@@H](N)Cc2ccc(O)cc2)CSSC[C@@H](C(=O)N[C@H](C(N)=O)[C@@H](C)O)NC(=O)[C@H](C)NC1=O | Alpha-2-HS-glycoprotein, asialo (AHSG, Bos taurus, UniProt P12763) | binding, isothermal titration calorimetry |  | pH 7.0, 25 °C, together with: asialofetuin |  | -ΔG | 22.8 kJ/mol |
| CCN(CCO)CCCC(C)Nc1ccnc2cc(Cl)ccc12 (stereo not shown) | SCN5A (Homo sapiens, UniProt Q14524) | sodium current |  | 10 µM |  | activation V1/2 | -49.8 ± 3.8 mV |
| CCCNCC(O)COc1ccccc1C(=O)CCc1ccccc1 (stereo not shown) | Nuclear receptor subfamily 2 group C member 2 ligand-binding domain | SPR imaging |  | 600 nM |  | koff | 1.04e-07 s⁻¹ |
| NCCCCC(=O)O | SLC6A6 (Homo sapiens, UniProt P31641, Y138A) | binding, microscale thermophoresis |  | 46.3 nM, fitted curve | higher = more binding | fraction bound | 0 |
| Nc1nc2c(ncn2[C@@H]2O[C@H](COP(=O)(O)O)[C@@H](O)[C@H]2O)c(=O)[nH]1 | GUK1 (Homo sapiens, UniProt Q16774) | enzyme activity, NADH-coupled |  | 2000 µM, together with: KCl 10 mM |  | reaction velocity | 0.126 µM/s and 0.143 µM/s and 0.115 µM/s |
| Cc1cc(O)c2c(c1)C(=O)c1cccc(O)c1C2=O | HepaRG co-cultured with HK-2 | MTT |  | 16.67 µM, 48 h | reference: untreated control | cell viability | 91.3 ± 8.11% |
| O=C1OC(c2ccccc2)=N/C1=C\c1ccccc1O | MAL12 (Saccharomyces cerevisiae S288c, UniProt P53341) | inhibitor, Lineweaver-Burk |  | 3200 ppm, together with: pNPG substrate |  | Vmax | 0.017 mM/min |
| Nc1ncnc2c1ncn2[C@@H]1O[C@H](COP(=O)(O)CP(=O)(O)OP(=O)(O)O)[C@@H](O)[C@H]1O | P2X purinoceptor 1 (P2RX1, Homo sapiens, UniProt P51575, S286A) | saturation binding | HEK293 | 79 nM |  | specific binding | 4030 CCPM and 4470 CCPM and 12700 CCPM |
| CC(=O)c1c(C)cc2cc(O)cc(O[C@@H]3O[C@H](CO)[C@@H](O)[C@H](O)[C@H]3O)c2c1O | HepaRG co-cultured with HK-2 | MTT |  | 66.67 µM, 24 h | reference: untreated control | cell viability | 111 ± 6.28% |
| COc1cccc(OC[C@@H]2CN(CC(=O)N3CCc4ccccc43)CCO2)c1 | DRD5 (Homo sapiens, UniProt P21918) | radioligand binding |  | concentration not given, together with: [3H]SCH23390 |  | inhibition | -6.2% |
| CC[C@@H]1[C@H](F)C(=O)N[C@@H]1COc1nccc2cc(C(N)=O)c(OC)cc12 | MARK2 (Homo sapiens, UniProt Q7KZI7) | ATP-site probe binding, ActivX profiling | THP-1 cell lysate | 0.2 mM, Lys1 site |  | inhibition | 9.9% |
| CCN(CC)CCCC(C)Nc1ccnc2cc(Cl)ccc12 (stereo not shown) | COS-7 |  |  | 100 µM, 24 h, 0.1% DMSO, unit not given | reference: control | confluence | 0.47 ± 0.05 |
| Cc1ncc([N+](=O)[O-])n1CCO | Nuclear receptor subfamily 2 group C member 2 ligand-binding domain | SPR imaging |  | 600 nM |  | koff | 1.25e-05 s⁻¹ |
| O=C(O)C[C@H](O)C[C@H](O)/C=C/c1c(C2CC2)nc2ccccc2c1-c1ccc(F)cc1 | COS-7 |  |  | 3 µM, 24 h, 0.1% DMSO, unit not given | reference: vehicle control | confluence | 0.91 ± 0.07 |
| Nc1ncnc2c1ncn2[C@@H]1O[C@H](COP(=O)(O)OP(=O)(O)OP(=O)(O)O)[C@@H](O)[C@H]1O | P2X purinoceptor 7 (P2rx7, Rattus norvegicus, UniProt Q64663, R125A) | ion current, agonist, two-electrode voltage clamp | Xenopus laevis oocytes | 500 µM | reference: highest concentration response | normalized current | 0.898 and 0.882 and 0.971 |
| COCCC(=O)N1CCC(Oc2ccccc2)C1 (stereo not shown) | Coatomer subunit beta', WD repeat domain (Homo sapiens, UniProt P35606) | binding, affinity selection mass spectrometry |  |  | reference: other proteins in batch | log fold enrichment | -0.236 |

Excerpt of the above:
| SMILES | tested on | assay | test system | conditions | how to read | measurement | value |
| --- | --- | --- | --- | --- | --- | --- | --- |
| COc1cccc(OC[C@@H]2CN(CC(=O)N3CCc4ccccc43)CCO2)c1 | DRD5 (Homo sapiens, UniProt P21918) | radioligand binding |  | concentration not given, together with: [3H]SCH23390 |  | inhibition | -6.2% |
| O=C1OC(c2ccccc2)=N/C1=C\c1ccccc1O | MAL12 (Saccharomyces cerevisiae S288c, UniProt P53341) | inhibitor, Lineweaver-Burk |  | 3200 ppm, together with: pNPG substrate |  | Vmax | 0.017 mM/min |
